# Earlier results, collected from citations in different studies.
# Compare with care: the assays were run in different laboratories. Numbers after ± are the reported error.
# Organism: Trypanosoma cruzi
Compound,strain,sample,concentration,notes,quantity,value
O=[N+]([O-])c1ccc(/C=N/N=C/c2ccc([N+](=O)[O-])o2)cc1,CL,intracellular amastigotes,,,IC50,0.78 ± 0.01 µM
O=C(/C=C/c1ccc(O)c(O)c1)N1CCN(Cc2ccccc2)CC1,"Y strain, trypomastigotes",,,,IC50,46.4 ± 0.9 µM
COC(=O)Cn1c2ccc([N+](=O)[O-])cc2c(=O)n1Cc1ccccc1,,,concentration not given,epimastigotes,antiparasitic activity,active
Cc1c(C(=O)N/N=C/c2c(-c3ccccc3)no[n+]2[O-])nc2ccccn12,amastigote,,,,IC50,56.2 µM
COC(=O)CCn1c2ccc([N+](=O)[O-])cc2c(=O)n1Cc1ccccc1,,,concentration not given,epimastigotes,antiparasitic activity,active
O=C(Nc1cc2nc(-c3ccc(F)c(F)c3)cn2cn1)N1CC[C@H](F)C1,,,,,EC50,0.09 µM
O=C(c1ccc(O)c(O)c1)N1CCN(Cc2ccccc2)CC1,amastigotes,,,,IC50,28.2 ± 3.8 µM
COc1cc(O)c(-c2ccc(OC)c3c(O)cc(C)c(-c4cc(-c5c(O)cc(OC)c6c5C[C@H](C)N(C)[C@@H]6C)c5cc(C)cc(OC)c5c4O)c23)c2c1[C@@H](C)N(C)[C@H](C)C2,Tulahuen C4,,,amastigotes,IC50,2.98 µM

# Excerpt of the above:
Compound,strain,sample,concentration,notes,quantity,value
Cc1c(C(=O)N/N=C/c2c(-c3ccccc3)no[n+]2[O-])nc2ccccn12,amastigote,,,,IC50,56.2 µM
